Assay results of several laboratories.
Each line is one published result; not all experiments were run side by side. “And” joins repeats or separate records; there may be more than shown. ± gives the spread as reported.
FN3KRP C24: Ketosamine-3-kinase, C24 (FN3KRP, Homo sapiens, UniProt Q9HA64)
Gria2/Glutamate receptor 3: Gria2/Glutamate receptor 3 (Rattus norvegicus, UniProt P19491+P19492)
PPO3: PPO3 (Agaricus bisporus, UniProt C7FF04)
USP14: Ubiquitin carboxyl-terminal hydrolase 14 (USP14, Homo sapiens, UniProt P54578)
MAPK9: Mitogen-activated protein kinase 9 (MAPK9, Homo sapiens, UniProt P45984)
SLC6A9: Sodium- and chloride-dependent glycine transporter 1 (SLC6A9, Homo sapiens, UniProt P48067)

CC[C@H](C)[C@H](NC(=O)[C@@H](NC(=O)[C@@H](NC(=O)[C@@H](NC(=O)[C@H](CCCNC(=N)N)NC(=O)[C@H](CCC(=O)O)NC(=O)[C@H](CCC(=O)O)NC(=O)[C@H](C)NC(=O)[C@H](CCC(=O)O)NC(=O)CNC(=O)[C@H](C)NC(=O)CN)C(C)C)C(C)C)C(C)C)C(=O)N[C@@H](CO)C(=O)N[C@@H](CO)C(=O)N[C@@H](CO)C(=O)N[C@@H](CCC(=O)O)C(=O)N[C@@H](CC(=O)O)C(=O)N[C@@H](CO)C(=O)N[C@@H](CC(=O)O)C(=O)N[C@@H](C)C(=O)N[C@@H](CCC(=O)O)C(=O)N[C@@H](CC(N)=O)C(=O)N[C@@H](CO)C(=O)N[C@@H](CO)C(=O)N[C@@H](CO)C(=O)N[C@@H](CCCNC(=N)N)C(=O)N[C@@H](Cc1ccc(O)cc1)C(=O)O — enthalpy change (ΔH) (Small ubiquitin-related modifier 1 (Homo sapiens, UniProt P63165, C52A); isothermal titration calorimetry; concentration not given, pH 7.4, SUMO1 construct): 0.5 ± 0.04 kcal/mol
CCCCCCCCCCCCC/C=C/C=O — isoTOP-ABPP competition ratio (FN3KRP C24; competitive isoTOP-ABPP; proteome, soluble, MDA-MB-231; 100 µM, 60 min, together with: iodoacetamide probe; reference: DMSO over compound-treated, higher = stronger cysteine blockade): 1
O=C(O)Cc1cc2c(cc1C(=O)c1ccccc1Br)OCO2 — desensitization time constant (Gria2/Glutamate receptor 3; whole-cell patch clamp; HEK-293T; concentration not given, together with: glutamate): 1.2 ± 0.2 ms
OC[C@H]1O[C@@H](Oc2cc3c(O)cc(O)cc3[o+]c2-c2cc(O)c(O)c(O)c2)[C@H](O)[C@@H](O)[C@H]1O — binding free energy ΔG (PPO3; fluorescence quenching; 338 K): -7.3566 ± 0.00239 kcal/mol
Cc1ccc(C[C@H](NC(=O)CN2CCCc3cc4cc(C(=O)NCCNC(=O)CCCC[C@@H]5SC[C@@H]6NC(=O)N[C@@H]65)c(=O)oc4cc32)C(=O)NC/C=C/S(=O)(=O)c2ccccc2)cc1 — kinact/Ki (Cathepsin S (CTSS, Homo sapiens, UniProt P25774); inhibitor; together with: Z-Phe-Arg-AMC): 5020 M⁻¹ s⁻¹
Cc1ccc(-c2cc(CN3c4ccccc4C=Cc4ccccc43)on2)cc1 — apparent Vmax (PPO3; enzyme activity, inhibitor; concentration not given): 32.9 µmol/min
OCc1nnc2n1N=C(c1ccc(Cl)cc1)CS2 — inhibition (USP14; enzyme activity, inhibitor; 17 µM): 30%
CC(C)Oc1cc(Cl)ccc1CNc1cc(-c2ccccc2)nc2ncnn12 — cAMP luminescence (GPR3 (Homo sapiens, UniProt P46089, R152A); cAMP level, cAMP GloSensor; 10 µM; higher = more cAMP): 17400 a.u. and 15600 a.u. and 16500 a.u. and 12500 a.u.
C#CCN1CCN(c2nc(N3CCC(CCOc4cc(-c5scnc5C)ccc4CNC(=O)[C@@H]4C[C@@H](O)CN4C(=O)[C@@H](NC(=O)C4(F)CC4)C(C)(C)C)CC3)nc(N3CCN(C(=O)C4CC4)C3)n2)CC1=O — Dmax (VHL/BRD9 (Homo sapiens, UniProt P40337+Q9H8M2); BRD9 degradation, degrader, HiBiT; HEK293T BRD9-HiBiT; 15 h): 80%
COC(=O)Cc1cc2c(cc1C(=O)c1ccccc1Cl)OCO2 — desensitization time constant (Gria2/Glutamate receptor 3; glutamate-evoked current, whole-cell patch clamp; HEK-293T; concentration not given, weighted tau, 500 ms pulse, together with: glutamate): 1.9 ± 0.2 ms
Cc1ccc(NC(=O)NC(C)(C)c2cccc(NC3=CC(=O)N(C4CCC(=O)NC4=O)C3=O)c2)cc1Cl (stereo not shown) — log2 fold change (CRBN/Zinc finger protein Aiolos (Homo sapiens, UniProt Q96SW2+Q9UKT9); degrader, quantitative proteomics, refers to: protein abundance; human regulatory T cells; 1 µM, 4 h; reference: DMSO): -0.792
C[Si](C)(C)C[C@@H](CN)CC(=O)O — inhibition (GABBR1 (Homo sapiens, UniProt Q9UBS5); ligand displacement, radioligand; 75 µM): 4%
COC(=O)[C@@]1(C)C=C(C(=O)Nc2cccc(C(=O)Nc3ccc(Nc4nccc(-c5cccnc5)n4)c(C)c3)c2)C(=O)CC1 — remaining activity (MAPK9; enzyme activity, inhibitor; 8.363e-05 µM, unit not given; reference: vehicle): 0.99
CCCCCCCO[C@H]1CO[C@H](CO)[C@@H](O)[C@H](O)[C@@H]1O — enthalpy change (ΔH obs) (Type 1 fimbrin D-mannose specific adhesin, lectin domain (fimH, Escherichia coli K-12, UniProt P08191); isothermal titration calorimetry; concentration not given, 25 °C): -11.8 kcal/mol
CCCC[C@H](NC(=O)[C@H](CCC(N)=O)NC(=O)[C@H](CCC(=O)O)NC(=O)[C@@H]1CCCN1C(=O)[C@@H](NC(=O)[C@H](C)NC(=O)[C@H](CC(N)=O)NC(=O)[C@H](CC(=O)O)NC(=O)CNC(=O)[C@@H]1CCCN1C(=O)[C@H](Cc1ccc(O)cc1)NC(=O)[C@@H](NC(=O)[C@@H]1CCCN1C(=O)[C@H](CCC(=O)O)NC(=O)[C@H](CC(C)C)NC(=O)[C@@H]1CCCN1C(=O)[C@H](C)N)C(C)C)[C@@H](C)O)C(=O)N[C@@H](C)C(=O)N[C@@H](CCC(N)=O)C(=O)N[C@@H](Cc1ccc(O)cc1)C(=O)N[C@@H](C)C(=O)N[C@@H](CCCCNC(=O)c1ccc2c(c1)C(=O)OC21c2ccc(N(C)C)cc2Oc2cc(N(C)C)ccc21)C(=O)N[C@@H](CC(=O)O)C(=O)N[C@@H](CC(C)C)C(=O)N[C@@H](CCCNC(=N)N)C(=O)N[C@@H](CCCNC(=N)N)C(=O)N[C@@H](Cc1ccc(O)cc1)C(=O)N[C@H](C(=O)N[C@@H](CC(N)=O)C(=O)N[C@@H](CCCC)C(=O)N[C@@H](CC(C)C)C(=O)N[C@H](C(=O)N[C@@H](CCCNC(=N)N)C(=O)N1CCC[C@H]1C(=O)N[C@@H](CCCNC(=N)N)C(=O)N[C@@H](Cc1ccc(O)cc1)C(N)=O)[C@@H](C)O)[C@@H](C)CC — BRETmax (NPY4R (Homo sapiens, UniProt P50391, Q121A); NanoBRET binding; Nluc-tagged receptor Q121A, unit not given; net BRET ratio): 0.043 ± 0.0008
N#CN1CC[C@H](C(=O)Nc2nc3c(s2)CN(C(=O)Cn2cc(CNC(=O)CCCC[C@@H]4SC[C@@H]5NC(=O)N[C@@H]54)nn2)CC3)C1 — iBAQ abundance (E3 ubiquitin-protein ligase HECTD1 (HECTD1, Homo sapiens, UniProt Q9ULT8); probe binding, affinity probe, neutravidin pull-down LC-MS/MS; HEK293T, cell lysate; 5 µM, 1 h, mean of three replicates, unit not given; higher = more pulled down): 712000
CCOC(=O)C(C(=O)c1ccccc1)C1(O)C(=O)c2ccccc2C1=O (stereo not shown) — inhibition (USP14; enzyme activity, inhibitor; 17 µM): 48%
COc1cc(/C=C/C=O)cc(OC)c1O — reaction velocity (uncharacterized protein (Solanum tuberosum, UniProt M0ZZL3); inhibitor, UDP-Glo; together with: 100 µM UDP-glucose): 0 nmol/min/mg
CCCCCC(O)/C=C/C=O (stereo not shown) — isoTOP-ABPP competition ratio (FN3KRP C24; competitive isoTOP-ABPP; proteome, soluble, MDA-MB-231; 100 µM, 60 min, together with: iodoacetamide probe; reference: DMSO over compound-treated, higher = stronger cysteine blockade): 15
COc1ccc(C(OCCN2CCCC2C(=O)O)(c2ccc(OC)cc2)c2ccc(OC)cc2)cc1 (stereo not shown) — remaining signal (SLC6A9; cell-free assay; 1 µM): 57%
Fc1ccc(Nc2nc(NC3CCCCC3)c3cc(C(F)(F)F)ccc3n2)cc1F — maximal inhibition (ADRB2 (Homo sapiens, UniProt P07550, C125V); β-arrestin2 recruitment, antagonist, BRET; mutant C125V; reference: isoprenaline maximal response): 5.6%
CC(C)[C@@H]1NC(=O)[C@H](Cc2ccccc2)NC(=O)CSC[C@@H](C(N)=O)NC(=O)[C@H](CCC(=O)O)NC(=O)[C@H](CO)NC(=O)[C@H](Cc2c[nH]c3cccc(Cl)c23)NC(=O)[C@H](C2CCCCC2)NC(=O)[C@H](C(C)C)NC(=O)[C@H](Cc2ccc(O)cc2)NC(=O)[C@H](CC(=O)O)NC(=O)[C@H](Cc2c[nH]c3ccccc23)NC(=O)[C@H](Cc2ccc(N)nc2)NC(=O)[C@H](Cc2c[nH]c3ccc(Cl)cc23)NC(=O)[C@H](CCC(=O)O)NC1=O — remaining activity (Interleukin-1 receptor-like 2 (IL1RL2, Homo sapiens, UniProt Q9HB29); reporter gene (SEAP), inhibitor, HEK-Blue IL-36R reporter; HEK-Blue IL-36R cells; 0.14 µM, 6 h, together with: IL-36β 0.01 ng/mL): 45.4%
Nc1ccn([C@@H]2O[C@H](COP(=O)(O)OP(=O)(O)OP(=O)(O)O)[C@@H](O)[C@H]2O)c(=O)n1 — Vmax (POLG (Homo sapiens, UniProt P54098); single-nucleotide incorporation, substrate): 0.44 product fraction
O=c1[nH]c2cccnc2n1-c1ccc2c(c1)OC1(CCCCC1)O2 — potentiation (KCNC1 (Homo sapiens, UniProt P48547); potassium current, activator, automated patch clamp; HEK293 expressing Kv3.1; 33 µM): 139%
O=C(O)Cc1cc2c(cc1C(=O)c1ccc(Cl)cc1Cl)OCO2 — current amplitude ratio (Gria2/Glutamate receptor 3; glutamate-evoked current, whole-cell patch clamp; HEK-293T; concentration not given; reference: glutamate alone): 9.17 ± 0.6
NC(=O)C1(O)CN(C(c2ccccc2)c2ccccc2)C1 — remaining signal (SLC6A9; cell-free assay; 1 µM): 97.7%
Cc1cc(C)cc(COc2cc3c(cc2OCc2cc(C)cc(C)c2)C2CC(O)(Cc4cn(CCOCCOCCNC(=O)CCCCC5SCC6NC(=O)NC65)nn4)CC(C)N2CC3)c1 (stereo not shown) — SILAC ratio (Prohibitin 1 (PHB1, Homo sapiens, UniProt P35232); biotinylated probe pull-down SILAC-ABPP, refers to: PHB; 10 µM probe; reference: heavy over light): 1.76
CCCCCCCCCCCCCCCC(=O)OCC(CSC[C@H](N)C(=O)N[C@@H](CO)C(=O)N[C@@H](CCCCN)C(=O)N[C@@H](CCCCN)C(=O)N[C@@H](CCCCN)C(=O)N[C@@H](CCCCN)C(=O)NCCCCCC(=O)N[C@@H](CCCCN)C(=O)N[C@@H](CC(C)C)C(=O)N[C@H](C(=O)N[C@@H](Cc1ccccc1)C(=O)N[C@@H](Cc1ccccc1)C(=O)N[C@@H](Cc1ccc2ccccc2c1)C(=O)O)C(C)C)OC(=O)CCCCCCCCCCCCCCC (stereo partly shown) — fibril diameter (Amyloid-beta precursor protein, fibrillar amyloid-beta (APP, Homo sapiens, UniProt P05067); TEM; 2.0 eq, 28 h, fibril 3, together with: APP 20 µM): 16 nm
CC1=C(C)C(=O)C(NCC2CCCO2)=CC1=O (stereo not shown) — inhibition (USP14; enzyme activity, inhibitor; 17 µM): 85%
C#CCOC(=O)[C@@]1(C)C=C(C(=O)Nc2cccc(C(=O)Nc3ccc(C)c(Nc4nccc(-c5cccnc5)n4)c3)c2)C(=O)CC1 — remaining activity (MAPK9; enzyme activity, inhibitor; 44.44 µM, unit not given; reference: vehicle): 0.044
CC(=O)ON=C1Sc2ccccc2C1=O — inhibition (USP14; enzyme activity, inhibitor; 17 µM): 34%
C=CC(=O)N1CCCC(n2c(=O)c3ncccc3n(Cc3ccc(Oc4ccccc4)cc3)c2=O)C1 (stereo not shown) — melting temperature (Protein phosphatase 1 regulatory subunit 7 (Homo sapiens, UniProt Q15435); thermal proteome profiling, refers to: PPP1R7; treated): 50.4 °C and 46.6 °C
Cc1cc(O)nc(O)c1C(=O)O — inhibition (USP14; enzyme activity, inhibitor; 17 µM): 77%
Cc1cc(=O)oc2cc(NC(=O)CCCCCCC(=O)NO)ccc12 — TΔS (HDAC8 (Homo sapiens, UniProt Q9BY41); ITC; triethanolamine buffer; pH 7.5): 3.1 kcal/mol

A few entries again:
N#CN1CC[C@H](C(=O)Nc2nc3c(s2)CN(C(=O)Cn2cc(CNC(=O)CCCC[C@@H]4SC[C@@H]5NC(=O)N[C@@H]54)nn2)CC3)C1 — iBAQ abundance (E3 ubiquitin-protein ligase HECTD1 (HECTD1, Homo sapiens, UniProt Q9ULT8); probe binding, affinity probe, neutravidin pull-down LC-MS/MS; HEK293T, cell lysate; 5 µM, 1 h, mean of three replicates, unit not given; higher = more pulled down): 712000
CCOC(=O)C(C(=O)c1ccccc1)C1(O)C(=O)c2ccccc2C1=O (stereo not shown) — inhibition (USP14; enzyme activity, inhibitor; 17 µM): 48%
